Measured values pooled from the literature.
Each line is one published result; not all experiments were run side by side. ± marks the error that the study gave.

For `N#Cc1nn(-c2c(Cl)cc(C(F)(F)F)cc2Cl)c(N)c1[S+]([O-])C(F)(F)F` (stereo not drawn), the EC50 was 18.1 µM (Caco-2; viability, MTT; 240 h).
With `CC(C)C[C@H](NC=O)C(=O)N[C@@H](C)C(=O)N[C@@H](C)C(=O)N[C@@H](CC(=O)O)C(=O)N[C@@H](CC(C)C)C(=O)N[C@@H](CC(C)C)C(=O)N[C@@H](C)C(=O)N[C@@H](C)C(=O)N[C@@H](CC(C)C)C(=O)NCC(=O)N[C@@H](CC(=O)O)C(=O)N[C@@H](CC(C)C)C(=O)N[C@@H](C)C(=O)N[C@@H](CCCCN)C(=O)N[C@@H](Cc1c[nH]c2ccccc12)C(=O)N[C@@H](CC(C)C)C(=O)N[C@@H](CC(C)C)C(=O)N[C@@H](CC(=O)O)C(=O)N[C@@H](C)C(=O)N[C@@H](CC(C)C)C(=O)N[C@@H](C)C(=O)N[C@@H](CCCCN)C(=O)N[C@@H](C)C(=O)N[C@@H](C)C(=O)N[C@@H](CCCCN)C(=O)N[C@@H](CCCCN)C(=O)O` (racemic) the EC50 was 40 µM (sheep erythrocytes; turbidity; pH 7.5).
With `CC[C@H](C)[C@H](NC(=O)[C@H](C)NC(=O)CNC(=O)[C@H](Cc1ccccc1)NC(=O)[C@H](CC(N)=O)NC(=O)[C@H](CC(N)=O)NC(=O)[C@H](CO)NC(=O)[C@H](CO)NC(=O)[C@H](Cc1c[nH]cn1)NC(=O)[C@@H](NC(=O)[C@H](CC(C)C)NC(=O)[C@H](Cc1ccccc1)NC(=O)[C@H](CC(N)=O)NC(=O)[C@H](C)NC(=O)[C@H](CC(C)C)NC(=O)[C@H](CCCNC(=N)N)NC(=O)[C@H](CCC(N)=O)NC(=O)[C@@H](NC(=O)[C@H](C)NC(=O)[C@@H]1CSSC[C@H](NC(=O)[C@@H](N)CCCCN)C(=O)N[C@@H](CC(N)=O)C(=O)N[C@@H]([C@@H](C)O)C(=O)N[C@@H](C)C(=O)N[C@@H]([C@@H](C)O)C(=O)N1)[C@@H](C)O)C(C)C)C(=O)N[C@@H](CC(C)C)C(=O)N[C@@H](CO)C(=O)N[C@@H](CO)C(=O)N[C@H](C(=O)N[C@@H](CC(N)=O)C(=O)N[C@H](C(=O)NCC(=O)N[C@@H](CO)C(=O)N[C@@H](CC(N)=O)C(=O)N[C@H](C(=O)N[C@@H](Cc1ccc(O)cc1)C(N)=O)[C@@H](C)O)C(C)C)[C@@H](C)O` the EC50 was 48.1 µM (INS-1; cell viability, CellTiter-Glo; 24 h).
`C=CCn1c(=O)c2cnc(Nc3ccc(N4CCN(C)CC4)cc3)nc2n1-c1cccc(C(C)(C)O)n1` gave an EC50 of 0.29 µM (ONS-76; cell growth or viability, MTS).
`CSCC[C@H](NC(=O)[C@H](CCCCN)NC(=O)[C@H](CCCCN)NC(=O)[C@@H](NC(=O)[C@H](CCCCN)NC(=O)[C@H](CC(=O)O)NC(=O)[C@H](Cc1c[nH]c2ccccc12)NC(=O)[C@H](CC(C)C)NC(=O)[C@H](CCC(=O)O)NC(=O)[C@H](CCCCN)NC(=O)[C@@H](NC(=O)[C@@H](N)Cc1ccccc1)C(C)C)C(C)C)C(=O)NCC(=O)N[C@@H](CO)C(=O)N[C@@H](C)C(=O)N[C@@H](C)C(=O)N[C@@H](Cc1c[nH]c2ccccc12)C(=O)N[C@@H](CO)C(=O)N[C@@H](C)C(=O)N[C@@H](C)C(=O)N[C@@H](CCCCN)C(=O)NCC(=O)N[C@@H](C)C(=O)N[C@@H](Cc1ccccc1)C(=O)N[C@@H](C)C(=O)O` has an EC50 of 39.4 ± 10.7 µM (F11 cells; intracellular calcium, FLIPR; 0.1% BSA).
The EC50 of `C[C@H]1CCC/C=C/[C@@H]2C[C@H](O)C[C@H]2[C@H](O)/C=C/C(=O)O1` is reported as 0.11 µM (MCF-10A; cell growth or viability, ATP luminescence).
`CC[P](CC)(CC)=[Au][S][C@@H]1O[C@H](COC(C)=O)[C@@H](OC(C)=O)[C@H](OC(C)=O)[C@H]1OC(C)=O` has an EC50 of 3.19 µM (MCF-10A; cell growth or viability, resazurin; 72 h).
For `C[C@]12CC[C@@H]3c4ccc(O)cc4CC[C@H]3[C@@H]1CC[C@@H]2O`, the EC50 was about 8e-05 µM (MCF7 stably expressing ERE-GFP; reporter gene, agonist, flow cytometry, refers to: ERα-driven GFP; 24 h).
For `NC(=O)CI`, the EC50 was 3.8 µM (SW480 expressing Rad51-EGFP; Rad51 nuclear foci; 24 h; reference: 10 µM camptothecin).
With `O=c1c(O)c(-c2ccc(O)c(O)c2)oc2c1ccc1ccccc12` the EC50 was 0.088 µM (HT-22; cell survival, MTT; 24 h, in vitro ischemia, together with: iodoacetic acid 20 µM, 2 h).
`COP(=S)(OC)Oc1ccc([N+](=O)[O-])c(C)c1` gave an EC50 of 21.3 ± 0.5 µM (Caco-2; viability, MTT; 240 h).
For `CC[C@H](C)[C@H](NC(=O)[C@H](C)NC(=O)[C@H](C)NC(=O)[C@H](CC(N)=O)NC(=O)[C@H](C)NC(=O)[C@H](C)NC(=O)[C@H](C)NC(=O)[C@H](CCCNC(=N)N)NC(=O)[C@H](CC(C)C)NC(=O)[C@@H](NC(=O)[C@H](CCC(=O)O)NC(=O)[C@@H]1CCCN1C(=O)CNC(=O)[C@H](CCCCN)NC(=O)[C@H](CCC(=O)O)NC(=O)[C@H](CCCCN)NC(=O)[C@@H](NC(=O)[C@H](Cc1ccccc1)NC(=O)[C@H](CC(=O)O)NC(=O)[C@H](CCCCN)NC(=O)[C@H](C)NC(=O)[C@H](CCCCN)NC(=O)[C@H](CC(N)=O)NC(=O)[C@H](CC(C)C)NC(=O)[C@H](Cc1c[nH]c2ccccc12)NC(=O)[C@H](CC(=O)O)NC(=O)[C@H](CCCCN)NC(=O)[C@H](Cc1c[nH]c2ccccc12)NC(=O)CN)[C@@H](C)CC)[C@@H](C)CC)C(=O)N[C@@H](CC(N)=O)C(=O)O`, the EC50 was 22.9 ± 1.95 µM (F11 cells; intracellular calcium, FLIPR; 0.1% BSA).
The EC50 of `CC1(C)[C@H](C(=O)O[C@H](C#N)c2cccc(Oc3ccccc3)c2)[C@@H]1/C=C(\Cl)C(F)(F)F` (racemic) is reported as 74.3 ± 4.8 µM (Caco-2; viability, MTT; 168 h).
The EC50 of `CC[C@H](C)[C@H](NC(=O)[C@H](CCCCN)NC(=O)[C@H](CCCCN)NC(=O)[C@H](C)NC(=O)[C@H](CC(C)C)NC(=O)[C@H](C)NC(=O)[C@H](C)NC(=O)[C@H](CC(C)C)NC(=O)[C@H](C)NC(=O)[C@H](CCCCN)NC(=O)[C@H](CC(C)C)NC(=O)[C@H](CC(N)=O)NC(=O)[C@@H](NC(=O)[C@H](CC(=O)O)NC(=O)CNC(=O)[C@H](CC(C)C)NC(=O)[C@H](CC(C)C)NC(=O)[C@H](Cc1c[nH]c2ccccc12)NC(=O)CNC(=O)[C@H](C)N)[C@@H](C)CC)C(=O)N[C@@H](CC(C)C)C(N)=O` is reported as 50 ± 7 µM (sheep erythrocytes; turbidity; pH 7.5).
The EC50 of `CC1(C)[C@H](C(=O)O[C@H](C#N)c2cccc(Oc3ccccc3)c2)[C@@H]1C=C(Br)Br` is reported as 136 ± 10.7 µM (Caco-2; viability, MTT; 168 h).
The EC50 of `N.N.[Cl][Pt][Cl]` is reported as 0.07 µM (HAP1 POLH-deficient; cell viability; together with: 1 µM).
`O=C(NC(=O)c1c(F)cccc1F)Nc1cc(Cl)c(F)c(Cl)c1F` gave an EC50 of 429 ± 24.5 µM (Caco-2; viability, MTT; 240 h).
`CC[C@H](C)[C@H](NC(=O)CN)C(=O)N[C@@H](CC(C)C)C(=O)N[C@@H](CCCCN)C(=O)N[C@@H](Cc1ccccc1)C(=O)N[C@@H](CC(C)C)C(=O)N[C@@H](CCC(=O)O)C(=O)N[C@@H](CO)C(=O)N[C@@H](C)C(=O)N[C@@H](CCCCN)C(=O)N[C@@H](CCCCN)C(=O)N[C@@H](Cc1c[nH]c2ccccc12)C(=O)N[C@@H](CC(C)C)C(=O)N[C@@H](CCC(=O)O)C(=O)N[C@@H](C)C(=O)N[C@@H](Cc1ccccc1)C(=O)N[C@@H](CC(C)C)C(=O)N[C@@H](C)C(=O)N[C@@H](CCC(=O)O)C(=O)N[C@H](C(=O)N[C@@H](CCSC)C(=O)N[C@@H](CC(N)=O)C(=O)N[C@@H](CO)C(=O)O)[C@@H](C)CC` gave an EC50 of 67 ± 22 µM (sheep erythrocytes; turbidity; pH 7.5).

For quick reference, copied from above:
The EC50 of `CC[C@H](C)[C@H](NC(=O)[C@H](CCCCN)NC(=O)[C@H](CCCCN)NC(=O)[C@H](C)NC(=O)[C@H](CC(C)C)NC(=O)[C@H](C)NC(=O)[C@H](C)NC(=O)[C@H](CC(C)C)NC(=O)[C@H](C)NC(=O)[C@H](CCCCN)NC(=O)[C@H](CC(C)C)NC(=O)[C@H](CC(N)=O)NC(=O)[C@@H](NC(=O)[C@H](CC(=O)O)NC(=O)CNC(=O)[C@H](CC(C)C)NC(=O)[C@H](CC(C)C)NC(=O)[C@H](Cc1c[nH]c2ccccc12)NC(=O)CNC(=O)[C@H](C)N)[C@@H](C)CC)C(=O)N[C@@H](CC(C)C)C(N)=O` is reported as 50 ± 7 µM (sheep erythrocytes; turbidity; pH 7.5).
